Measured values from different studies.
Lines come from different studies, so protocols differ. Several values in a cell are separate wells, animals, samples, runs or records. Numbers after ± are the reported error.

| Structure (SMILES) | tested on | test | test system | conditions | quantity | result |
| --- | --- | --- | --- | --- | --- | --- |
| Cc1ccc(N2CC3CCC(C2)N3C)cc1C(=O)N[C@H](C)c1cc(-c2cnn(C)c2)nc2ccccc12 | African green monkey cells |  |  | 62.5 µM | viability | 24.3% |
| CCCC[C@H]1C(=O)N(C)[C@@H](CCCC)C(=O)N[C@@H](CCCNC(=O)CN2CCN(CC(=O)O)CCN(CC(=O)O)CCN(CC(=O)O)CC2)C(=O)N[C@H](C(=O)NCC(N)=O)CSCC(=O)N[C@@H](Cc2ccc(O)cc2)C(=O)N(C)[C@@H](C)C(=O)N[C@@H](CC(N)=O)C(=O)N2CCC[C@H]2C(=O)N[C@@H](Cc2c[nH]cn2)C(=O)N[C@@H](CC(C)C)C(=O)N(C)CC(=O)N[C@@H](Cc2c[nH]c3ccccc23)C(=O)N[C@@H](CO)C(=O)N[C@@H](Cc2c[nH]c3ccccc23)C(=O)N1C [gallium-68 labelled] |  |  | NOD/SCID mice, CHO-hPD-L1 xenograft, spleen | 60 min, atezolizumab 10 mg/kg pretreatment | tissue uptake | 3.72 ± 0.55 %ID/g |
| CC[C@H](C)[C@H](NC(=O)[C@H](CCCNC(=N)N)NC(=O)[C@H](CCCCN)NC(=O)[C@H](Cc1ccc(O)cc1)NC(=O)[C@H](CC(=O)O)NC(=O)[C@H](C)NC(=O)CNC(=O)CCOCCOCCOCCNC(=O)CN1CCN(CC(=O)O)CCN(CC(=O)O)CCN(CC(=O)O)CC1)C(=O)N[C@H](C(=O)N[C@H](C(=O)N[C@@H](CCCCN)C(=O)N[C@H](C(=O)N[C@@H](CC(N)=O)C(N)=O)C(C)C)C(C)C)[C@@H](C)O [copper-64 labelled] |  | ex vivo gamma counting | C57BL/6J male mice, B16-F10 tumour, lung | intravenous, 1.85 MBq, 20 min | tissue uptake | 2.39 ± 0.286 %ID/g |
| CSCC[C@H](NC(=O)CNC(=O)[C@H](CCCCN)NC(=O)[C@H](CC(C)C)NC(=O)[C@@H]1CCCN1C(=O)[C@H](CO)NC(=O)[C@H](Cc1c[nH]cn1)NC(=O)[C@H](Cc1c[nH]c2ccccc12)NC(=O)[C@H](CCCNC(=N)N)NC(=O)[C@H](CC(C)C)NC(=O)[C@H](CCCNC(=N)N)NC(=O)[C@H](Cc1c[nH]c2ccccc12)NC(=O)[C@H](CS)NC(=O)CCCCCNC(=O)CN1CCN(CC(=O)O)CCN(CC(=O)O)CCN(CC(=O)O)CC1)C(=O)O [copper-64 labelled] |  | ex vivo biodistribution | C57BL/6J mice bearing B16-F10 tumours, heart | intravenous, 1.85 MBq, 0.5 h | tissue uptake | 2.2 %ID/g |
| CC[C@H](C)[C@H](NC(=O)[C@H](CCCCN)NC(=O)CNC(=O)[C@H](CC(C)C)NC(=O)[C@H](Cc1ccccc1)NC(=O)[C@H](CCCCN)NC(=O)[C@H](CO)NC(=O)[C@H](Cc1ccccc1)NC(=O)[C@H](Cc1c[nH]c2ccccc12)NC(=O)[C@H](CCC(N)=O)NC(=O)[C@@H](NC(=O)[C@H](Cc1ccccc1)NC(=O)CCCCCNC(=O)CN1CCN(CC(=O)O)CCN(CC(=O)O)CCN(CC(=O)O)CC1)C(C)C)C(=O)N[C@@H](CCC(=O)O)C(=O)N1CCC[C@H]1C(=O)N[C@@H](CC(=O)O)C(=O)N[C@H](C(=O)N[C@@H](CO)C(=O)N[C@@H](CCC(N)=O)C(=O)N[C@H](C(=O)N[C@@H](CCC(N)=O)C(=O)N[C@@H](CC(=O)O)C(=O)N1CCC[C@H]1C(=O)N[C@@H](CC(N)=O)C(=O)N[C@@H](CC(=O)O)C(=O)N[C@@H](CCC(N)=O)C(=O)N[C@@H](Cc1ccc(O)cc1)C(=O)N[C@@H](CCC(=O)O)C(=O)N1CCC[C@H]1C(=O)N[C@@H](Cc1ccccc1)C(=O)O)C(C)C)C(C)C [copper-64 labelled] |  |  | GZMB-/- mice, CT26 tumour-bearing, pancreas | 2 h, checkpoint inhibitor-treated | tissue uptake | 0.76 ± 0.1 %ID/g |
| C[C@H](O)[C@@H](NC(=O)[C@H]1CCCN1C(=O)[C@@H](CCCCN)NC(=O)[C@@H](CO)NC(=O)[C@@H](Cc1ccc(O)cc1)NC(=O)[C@@H](CC(N)=O)NC(=O)CCOCCOCCOCCNC(=O)CN1CCN(CC(=O)O)CCN(CC(=O)O)CCN(CC(=O)O)CC1)C(=O)N[C@H](CC(=O)O)C(=O)N[C@H](CCCNC(=N)N)C(=O)N[C@H](CCC(N)=O)C(=O)N[C@H](Cc1ccc(O)cc1)C(=O)N[C@H](Cc1c[nH]cn1)C(=O)N[C@H](Cc1ccccc1)C(N)=O [gallium-68 labelled] |  |  | BALB/c nude mice U-87 MG tumour, lung | intravenous, 1.85 MBq, 1 h, radiolabelled | tissue uptake | 0.13 ± 0.05 %ID/g |
| O=C1NC2(CC2)COc2ncc(F)cc2[C@H]2COCCN2c2ccn3ncc1c3n2 |  |  | Sprague-Dawley rat, female, heart | oral, 10 mg/kg/day, 4 weeks dosing, end of recovery | organ-to-body weight ratio | 0.376 ± 0.032% |
| Cc1ccc(OCCN(C)C)cc1C(=O)N[C@H](C)c1cc(-c2cnn(C(F)F)c2)nc2ccccc12 | Vero E6 |  |  | 125 µM | viability | -2.31% and -2.69% |
| CC[C@H](C)[C@H](NC(=O)[C@H](CCCNC(=N)N)NC(=O)[C@H](CCCCN)NC(=O)[C@H](Cc1ccc(O)cc1)NC(=O)[C@H](CC(=O)O)NC(=O)[C@H](C)NC(=O)CNC(=O)CCOCCOCCOCCNC(=O)CN1CCN(CC(=O)O)CCN(CC(=O)O)CCN(CC(=O)O)CC1)C(=O)N[C@H](C(=O)N[C@@H](CC(C)C)C(=O)N[C@@H](CCCCN)C(=O)N[C@H](C(=O)N[C@@H](CC(N)=O)C(N)=O)C(C)C)[C@@H](C)O [copper-64 labelled] |  | ex vivo gamma counting | C57BL/6J male mice, B16-F10 tumour, bone | intravenous, 1.85 MBq, 40 min | tissue uptake | 0.958 ± 0.359 %ID/g |
| CC(C)C[C@@H](NC(=O)[C@@H](CCCNC(=N)N)NC(=O)[C@@H](Cc1c[nH]cn1)NC(=O)[C@@H](Cc1c[nH]c2ccccc12)NC(=O)[C@@H](Cc1c[nH]cn1)NC(=O)[C@@H](Cc1ccccc1)NC(=O)[C@H](NC(=O)[C@@H](Cc1ccc(O)cc1)NC(=O)CNC(=O)CNC(=O)CCOCCOCCOCCNC(=O)CN1CCN(CC(=O)O)CCN(CC(=O)O)CC1)[C@H](C)O)C(=O)N[C@H](CC(N)=O)C(=O)N1CCC[C@@H]1C(=O)O [gallium-68 labelled] |  | gamma counting | C57BL/6 mice, male, muscle | intravenous, 1.85 MBq, 30 min | tissue uptake | 1.1 ± 0.26 %ID/g |
| CN1Cc2cc(Cl)ccc2-n2c(nnc2C2CCN(c3cccc([18F])n3)CC2)C1 |  |  | C57BL/6 mouse male, stomach | intravenous, 3.7 MBq, 1 min | tissue uptake | 3.93 ± 1.65 %ID/g |

Repeated from above:
| Structure (SMILES) | tested on | test | test system | conditions | quantity | result |
| --- | --- | --- | --- | --- | --- | --- |
| CSCC[C@H](NC(=O)CNC(=O)[C@H](CCCCN)NC(=O)[C@H](CC(C)C)NC(=O)[C@@H]1CCCN1C(=O)[C@H](CO)NC(=O)[C@H](Cc1c[nH]cn1)NC(=O)[C@H](Cc1c[nH]c2ccccc12)NC(=O)[C@H](CCCNC(=N)N)NC(=O)[C@H](CC(C)C)NC(=O)[C@H](CCCNC(=N)N)NC(=O)[C@H](Cc1c[nH]c2ccccc12)NC(=O)[C@H](CS)NC(=O)CCCCCNC(=O)CN1CCN(CC(=O)O)CCN(CC(=O)O)CCN(CC(=O)O)CC1)C(=O)O [copper-64 labelled] |  | ex vivo biodistribution | C57BL/6J mice bearing B16-F10 tumours, heart | intravenous, 1.85 MBq, 0.5 h | tissue uptake | 2.2 %ID/g |
| CC[C@H](C)[C@H](NC(=O)[C@H](CCCCN)NC(=O)CNC(=O)[C@H](CC(C)C)NC(=O)[C@H](Cc1ccccc1)NC(=O)[C@H](CCCCN)NC(=O)[C@H](CO)NC(=O)[C@H](Cc1ccccc1)NC(=O)[C@H](Cc1c[nH]c2ccccc12)NC(=O)[C@H](CCC(N)=O)NC(=O)[C@@H](NC(=O)[C@H](Cc1ccccc1)NC(=O)CCCCCNC(=O)CN1CCN(CC(=O)O)CCN(CC(=O)O)CCN(CC(=O)O)CC1)C(C)C)C(=O)N[C@@H](CCC(=O)O)C(=O)N1CCC[C@H]1C(=O)N[C@@H](CC(=O)O)C(=O)N[C@H](C(=O)N[C@@H](CO)C(=O)N[C@@H](CCC(N)=O)C(=O)N[C@H](C(=O)N[C@@H](CCC(N)=O)C(=O)N[C@@H](CC(=O)O)C(=O)N1CCC[C@H]1C(=O)N[C@@H](CC(N)=O)C(=O)N[C@@H](CC(=O)O)C(=O)N[C@@H](CCC(N)=O)C(=O)N[C@@H](Cc1ccc(O)cc1)C(=O)N[C@@H](CCC(=O)O)C(=O)N1CCC[C@H]1C(=O)N[C@@H](Cc1ccccc1)C(=O)O)C(C)C)C(C)C [copper-64 labelled] |  |  | GZMB-/- mice, CT26 tumour-bearing, pancreas | 2 h, checkpoint inhibitor-treated | tissue uptake | 0.76 ± 0.1 %ID/g |
